Measurements gathered from unrelated publications.
DRD3: D(3) dopamine receptor (DRD3, Homo sapiens, UniProt P35462)
Chain of UniProt P35462 (whole entry, looked up): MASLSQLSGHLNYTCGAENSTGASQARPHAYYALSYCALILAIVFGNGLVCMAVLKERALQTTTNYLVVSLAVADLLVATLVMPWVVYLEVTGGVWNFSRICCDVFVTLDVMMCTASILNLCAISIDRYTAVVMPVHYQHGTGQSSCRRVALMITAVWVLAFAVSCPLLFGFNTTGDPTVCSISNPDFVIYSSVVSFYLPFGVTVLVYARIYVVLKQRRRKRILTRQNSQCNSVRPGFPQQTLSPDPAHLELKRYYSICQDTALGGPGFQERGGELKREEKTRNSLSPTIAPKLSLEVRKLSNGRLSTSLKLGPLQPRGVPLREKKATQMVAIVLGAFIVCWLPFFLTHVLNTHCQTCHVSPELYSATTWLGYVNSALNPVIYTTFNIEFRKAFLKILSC
FOLH1: Glutamate carboxypeptidase 2 (FOLH1, Homo sapiens, UniProt Q04609)
Chain of UniProt Q04609 (whole entry, looked up): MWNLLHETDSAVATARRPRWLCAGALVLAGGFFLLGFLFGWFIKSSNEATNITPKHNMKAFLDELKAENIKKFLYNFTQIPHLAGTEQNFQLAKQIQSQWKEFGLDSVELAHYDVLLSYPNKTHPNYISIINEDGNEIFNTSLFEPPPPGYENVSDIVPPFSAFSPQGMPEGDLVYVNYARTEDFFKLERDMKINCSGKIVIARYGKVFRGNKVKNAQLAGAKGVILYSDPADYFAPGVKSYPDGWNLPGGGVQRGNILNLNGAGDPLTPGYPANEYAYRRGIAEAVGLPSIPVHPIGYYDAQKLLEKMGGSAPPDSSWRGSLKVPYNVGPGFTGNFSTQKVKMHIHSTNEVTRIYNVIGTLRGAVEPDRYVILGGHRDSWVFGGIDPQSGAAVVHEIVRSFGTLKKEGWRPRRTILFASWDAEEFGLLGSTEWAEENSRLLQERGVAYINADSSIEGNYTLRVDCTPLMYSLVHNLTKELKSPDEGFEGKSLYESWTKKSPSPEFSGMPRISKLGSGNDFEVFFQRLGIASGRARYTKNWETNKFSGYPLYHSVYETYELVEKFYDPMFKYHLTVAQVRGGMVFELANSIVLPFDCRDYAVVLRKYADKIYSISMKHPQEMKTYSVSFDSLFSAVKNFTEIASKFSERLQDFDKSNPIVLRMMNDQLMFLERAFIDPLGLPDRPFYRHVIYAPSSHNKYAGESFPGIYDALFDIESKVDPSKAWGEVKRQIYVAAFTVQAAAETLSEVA
LCK: Tyrosine-protein kinase Lck (LCK, Homo sapiens, UniProt P06239)
Chain of UniProt P06239 (whole entry, looked up): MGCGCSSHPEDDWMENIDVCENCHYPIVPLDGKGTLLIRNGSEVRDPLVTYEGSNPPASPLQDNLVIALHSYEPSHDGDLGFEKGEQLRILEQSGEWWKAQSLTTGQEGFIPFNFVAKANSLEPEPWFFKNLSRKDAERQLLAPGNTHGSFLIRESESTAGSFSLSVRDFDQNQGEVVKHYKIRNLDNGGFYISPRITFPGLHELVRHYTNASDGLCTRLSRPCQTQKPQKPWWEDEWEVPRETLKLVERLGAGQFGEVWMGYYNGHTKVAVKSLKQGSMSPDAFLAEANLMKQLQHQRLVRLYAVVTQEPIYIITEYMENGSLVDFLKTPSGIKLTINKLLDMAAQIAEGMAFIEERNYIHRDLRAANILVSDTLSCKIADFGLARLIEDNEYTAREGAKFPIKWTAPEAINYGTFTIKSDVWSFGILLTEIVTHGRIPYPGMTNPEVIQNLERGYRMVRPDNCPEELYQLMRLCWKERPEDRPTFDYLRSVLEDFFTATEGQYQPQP
Trypsin: Trypsin (Sus scrofa, UniProt P00761)
Chain of UniProt P00761 (whole entry, looked up): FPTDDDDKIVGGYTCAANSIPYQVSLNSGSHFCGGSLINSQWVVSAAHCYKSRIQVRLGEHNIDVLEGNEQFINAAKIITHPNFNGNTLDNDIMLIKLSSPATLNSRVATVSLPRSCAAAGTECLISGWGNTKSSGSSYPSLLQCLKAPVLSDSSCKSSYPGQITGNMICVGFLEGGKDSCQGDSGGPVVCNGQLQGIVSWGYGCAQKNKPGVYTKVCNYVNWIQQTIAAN
Chain of UniProt P00519 (whole entry, looked up): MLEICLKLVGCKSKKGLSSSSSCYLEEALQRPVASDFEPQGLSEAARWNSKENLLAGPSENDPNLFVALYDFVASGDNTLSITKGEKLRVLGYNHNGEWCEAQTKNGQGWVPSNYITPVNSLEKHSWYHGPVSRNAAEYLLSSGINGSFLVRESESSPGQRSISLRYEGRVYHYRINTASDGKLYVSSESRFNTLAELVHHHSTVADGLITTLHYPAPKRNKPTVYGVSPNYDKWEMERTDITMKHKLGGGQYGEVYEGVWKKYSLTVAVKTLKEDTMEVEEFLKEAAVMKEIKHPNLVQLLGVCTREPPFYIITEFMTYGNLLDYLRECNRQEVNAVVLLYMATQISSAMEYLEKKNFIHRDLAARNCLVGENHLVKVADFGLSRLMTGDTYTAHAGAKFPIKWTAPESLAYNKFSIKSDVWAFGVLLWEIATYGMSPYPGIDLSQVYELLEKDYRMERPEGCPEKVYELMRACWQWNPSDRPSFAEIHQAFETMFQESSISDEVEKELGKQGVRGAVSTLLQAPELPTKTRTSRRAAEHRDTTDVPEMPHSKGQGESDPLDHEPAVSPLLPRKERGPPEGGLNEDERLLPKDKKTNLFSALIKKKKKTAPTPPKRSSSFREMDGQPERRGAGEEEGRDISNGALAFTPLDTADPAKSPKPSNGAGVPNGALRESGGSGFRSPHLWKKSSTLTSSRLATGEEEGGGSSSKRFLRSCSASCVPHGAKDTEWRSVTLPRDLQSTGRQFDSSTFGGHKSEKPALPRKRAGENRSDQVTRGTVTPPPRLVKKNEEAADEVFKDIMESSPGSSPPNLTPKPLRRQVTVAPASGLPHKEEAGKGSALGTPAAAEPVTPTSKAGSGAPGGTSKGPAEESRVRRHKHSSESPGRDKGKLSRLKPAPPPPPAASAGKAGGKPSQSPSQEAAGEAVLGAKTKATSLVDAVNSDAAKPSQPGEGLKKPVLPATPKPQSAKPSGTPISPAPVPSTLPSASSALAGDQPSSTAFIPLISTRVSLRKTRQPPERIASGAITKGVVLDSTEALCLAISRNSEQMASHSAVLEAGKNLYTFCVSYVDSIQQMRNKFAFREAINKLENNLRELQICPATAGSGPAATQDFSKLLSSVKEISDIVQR
Chain of UniProt P35367 (whole entry, looked up): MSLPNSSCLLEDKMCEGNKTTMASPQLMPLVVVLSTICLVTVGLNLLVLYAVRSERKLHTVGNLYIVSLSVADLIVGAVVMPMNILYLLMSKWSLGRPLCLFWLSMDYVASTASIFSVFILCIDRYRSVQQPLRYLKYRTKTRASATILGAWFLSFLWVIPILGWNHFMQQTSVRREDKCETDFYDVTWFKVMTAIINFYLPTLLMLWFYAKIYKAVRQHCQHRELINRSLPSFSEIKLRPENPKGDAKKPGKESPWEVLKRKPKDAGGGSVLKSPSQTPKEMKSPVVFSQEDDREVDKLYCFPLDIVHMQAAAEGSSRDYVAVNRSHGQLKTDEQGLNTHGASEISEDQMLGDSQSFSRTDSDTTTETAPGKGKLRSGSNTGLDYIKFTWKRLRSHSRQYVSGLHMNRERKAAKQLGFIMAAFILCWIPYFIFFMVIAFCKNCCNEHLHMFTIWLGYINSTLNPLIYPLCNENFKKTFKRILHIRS

c1ccc2c(c1)OC[C@@H](CNCc1cccc3cccnc13)O2  Ki (DRD3; ligand displacement, radioligand): 0.275 µM
O=C(O)CC[C@H](NC(=O)N[C@@H](CCCCNC(=O)CCCCCCC(=O)N[C@@H](CCCCNC(=O)C(Cc1ccccc1)NC(=O)C(Cc1ccccc1)NC(=O)CN1CCN(CC(=O)O)CCN(CC(=O)O)CCN(CC(=O)O)CC1)C(=O)O)C(=O)O)C(=O)O (stereo partly shown)  Ki (FOLH1; enzyme activity, inhibitor, fluorescence; lysate): 0.0111 µM
O=C1CCc2c(ccc3ccccc23)O1  Ki (Carbonic anhydrase 2 (CA2, Homo sapiens, UniProt P00918); enzyme activity, inhibitor, stopped-flow): 41 µM
CC1Cc2ccccc2N1C(=O)CN1CCN(c2ccccc2)CC1 (stereo not shown)  Ki (DRD3; ligand displacement, radioligand): > 10 µM
O=C([O-])CN1CCN(CC(=O)O)C[C@H](Cc2ccc(NC(=S)NCCCCC(NC(=O)CCCCCCC(=O)NCCCC[C@H](NC(=O)N[C@@H](CCC(=O)O)C(=O)O)C(=O)O)C(=O)O)cc2)N(CC(=O)[O-])Cc2cccc(n2)C1.[Cu+2] (stereo partly shown)  Ki (FOLH1; enzyme activity, inhibitor, fluorescence; lysate): 0.0108 µM
COCCNCc1ccc(-c2cc(Cl)cc(Cl)c2)o1  Ki (DRD3; ligand displacement, radioligand): 0.158 µM
CCOc1cnc(C#N)cc1-c1ccn2nc(NC(=O)C3CC3)cc2c1  Ki (LCK; enzyme activity, inhibitor): 0.0318 µM
O=C(Nc1ccc([C@H]2[C@@H](F)[C@@H](F)C[C@@H](F)[C@H]2F)cc1)C1CC1  hepatic clearance (hepatocyte stability; cryopreserved rat hepatocytes; 1 µM): 32 mL/min/kg
CN1CC[C@@H](COc2cnc(C#N)cc2-c2ccn3nc(NC(=O)C4CC4)cc3c2)C1  Ki (LCK; enzyme activity, inhibitor): 0.415 µM
CC[C@H](C)[C@H](NC(=O)[C@@H](NC(=O)[C@H](CO)NC(=O)[C@@H](NC(=O)[C@@H]1CCCN1C(=O)[C@H](CC(C)C)NC(=O)[C@H](CCCNC(=N)N)NC(=O)[C@H](CO)NC(=O)[C@H](CC(N)=O)NC(=O)[C@H](C)N)[C@@H](C)O)[C@@H](C)CC)C(=O)O  Ki (Na(+)/H(+) exchange regulatory cofactor NHE-RF2 (Homo sapiens, UniProt Q15599); ligand displacement, FP): > 1000 µM
CC(=O)Nc1ccc(C2CCCCC2)cc1  hepatic clearance (liver microsome stability; cynomolgus liver microsomes; 1 µM): 39 mL/min/kg
Cn1ccc2c(N3CCN(CCCCOc4ccc5c(c4)NC(=O)CC5)CC3)cccc21  Ki (Histamine H1 receptor (HRH1, Homo sapiens, UniProt P35367); ligand displacement, radioligand): 0.089 µM
CC(C)NCc1ccc(-c2cc(Cl)ccc2Cl)o1  Ki (DRD3; ligand displacement, radioligand): 0.141 µM
CC(C)Oc1ccc(B(O)O)c(F)n1  Ki (Trypsin; enzyme activity, inhibitor): > 5000 µM
C[C@H](O)CNCc1ccc(-c2cc(Cl)ccc2Cl)o1  Ki (DRD3; ligand displacement, radioligand): 0.12 µM
CC1Cc2ccccc2N1C(=O)CN1CCN(Cc2ccccc2)CC1 (stereo not shown)  Ki (DRD3; ligand displacement, radioligand): 6.9 µM
C=CS(=O)(=O)Oc1ccc(OC)c(-c2c[nH]c3ncc(-c4cncc(C(=O)N(C)C)c4)cc23)c1  Ki (Tyrosine-protein kinase ABL1 (ABL1, Homo sapiens, UniProt P00519); covalent inhibitor, intact protein MS; time-dependent labelling): 0.19 µM
OC(CN1CCN(c2nsc3ccccc23)CC1)c1cccs1 (stereo not shown)  Ki (DRD3; ligand displacement, radioligand): 0.16 µM
OB(O)c1cnn(-c2cc(Cl)ncn2)c1  Ki (Trypsin; enzyme activity, inhibitor, absorbance): 1310 µM

Repeated from above:
O=C(Nc1ccc([C@H]2[C@@H](F)[C@@H](F)C[C@@H](F)[C@H]2F)cc1)C1CC1  hepatic clearance (hepatocyte stability; cryopreserved rat hepatocytes; 1 µM): 32 mL/min/kg
CC(C)Oc1ccc(B(O)O)c(F)n1  Ki (Trypsin; enzyme activity, inhibitor): > 5000 µM
